Results collected from several papers.
Several values in a cell are separate wells, animals, samples, runs or records. ± marks the error that the study gave.
Cell line: RAW264.7

With `CC(C)/C=C/c1c(O)cc(/C=C/c2ccc(O)cc2)cc1O` the IC50 was 6 µg/mL (NO release, inhibitor; LPS-stimulated).
`Nn1c(SCC(=O)Nc2ccccc2Cl)nnc1-c1ccc(NC(=O)c2cccnc2)cc1` gave an IC50 of 5.61 µM (IL-6 release, inhibitor, ELISA; LPS-stimulated).
The IC50 of `CC1(C)[C@@H](OC(=O)CCC(=O)O)CC[C@]2(C)[C@H]3C(=O)C=C4[C@@H]5C[C@@](C)(C(=O)O)CC[C@]5(C)CC[C@@]4(C)[C@]3(C)CC[C@@H]12` is reported as 11.4 µM (NO release, inhibitor, Griess; LPS-stimulated).
With `CON=Cc1c(-c2ccccc2)[nH]c2ccccc12` the IC50 was 22.5 µM (NO release, inhibitor, Griess; LPS-stimulated).
The IC50 of `O=C(CCNNC(=O)c1ccncc1)NCc1ccccc1` is reported as > 200 µg/mL (NO release, inhibitor, Griess; LPS-stimulated).
For `Nn1c(SCC(=O)Nc2ccc(F)cc2)nnc1-c1ccc(NC(=O)c2cccnc2)cc1`, the IC50 was 27.9 µM (reactive oxygen species, inhibitor, fluorescence; LPS-stimulated).
With `CC(=O)CC(=O)C1CC(C)C(=O)C1=O` (centres unmarked) the IC50 was 1.02 ± 0.08 µM (cell viability, CCK-8; 48 h, together with: LPS 1 µg/mL).
For `COc1cccc(/C=C/c2ccc(O)cc2)c1`, the IC50 was 8 µg/mL (NO release, inhibitor; LPS-stimulated).
The IC50 of `Cc1ccc(-c2cc(C(F)(F)F)nn2-c2ccc(S(N)(=O)=O)cc2)cc1` is reported as 16.5 µM (NO release, inhibitor, Griess; LPS-stimulated).
With `c1ccc(-c2cc3ccccc3[nH]2)cc1` the IC50 was < 50 µM and 38.1 µM (NO release, inhibitor, Griess; LPS-stimulated).
The IC50 of `Oc1cccc(CCc2ccccc2)c1` is reported as 19.5 µg/mL (NO release, inhibitor; LPS-stimulated).
`Cc1ccc(NC(=O)CSc2nnc(-c3ccc(NC(=O)c4cccnc4)cc3)o2)cc1` gave an IC50 of 2.43 µM (IL-6 release, inhibitor, ELISA; LPS-stimulated).
`Cc1c(-c2ccc(O)cc2)nn(-c2ccc(O)cc2)c1-c1ccc(OCCN2CCCCC2)cc1` has an IC50 of 2.11 ± 0.64 µM (TNF-alpha production, inhibitor; together with: CpG-DNA).
`C=C1C(=O)O[C@H]2[C@H]1CC/C(C)=C/CC[C@@]1(C)O[C@@H]21` gave an IC50 of 0.42 µg/mL (NO release, inhibitor; LPS-stimulated).
For `O=c1c(O)c(-c2ccccc2)oc2cc3ccccc3cc12`, the IC50 was 22.4 µM and 22 µM (cytotoxicity, MTT; visible light, added BSA).
With `Nc1ccccc1C#Cc1cc(F)cc(F)c1` the IC50 was 4.6 µM (NO release, inhibitor, Griess; LPS-stimulated).
`CN(Cc1cnc2nc(N)nc(N)c2n1)c1ccc(C(=O)N[C@@H](CCC(=O)O)C(=O)O)cc1` gave an IC50 of 1.21 ± 0.13 µM (cell viability, CCK-8; 48 h, together with: LPS 1 µg/mL).
With `Nn1c(SCC(=O)Nc2ccc([N+](=O)[O-])cc2)nnc1-c1ccc(NC(=O)c2cccnc2)cc1` the IC50 was 7.05 µM (TNF-α release, inhibitor, ELISA; LPS-stimulated).
With `Oc1ccc(/C=C/c2cccc(O)c2)cc1` the IC50 was 10.3 µg/mL (NO release, inhibitor; LPS-stimulated).
`O=C(CSc1nnc(-c2ccc(NC(=O)c3cccnc3)cc2)o1)Nc1ccccc1Cl` has an IC50 of 7.76 µM (IL-6 release, inhibitor, ELISA; LPS-stimulated).
`CC(=O)CC(=O)C1CCCC1=O` (centres unmarked) gave an IC50 of 2.91 ± 0.24 µM (cell viability, CCK-8; 48 h, together with: LPS 1 µg/mL).
`c1ccc2[nH]c(-c3ccsc3)cc2c1` has an IC50 of 20.4 µM (NO release, inhibitor, Griess; LPS-stimulated).
For `COc1cccc(CCc2ccc(O)cc2)c1`, the IC50 was 20 µg/mL (NO release, inhibitor; LPS-stimulated).
For `CCCCCC1C(=O)C(C(=O)CC(C)=O)CC1CC(=O)OC` (centres unmarked), the IC50 was 2.45 ± 0.2 µM (cell viability, CCK-8; 48 h, together with: LPS 1 µg/mL).
`CC(=O)c1ccc(NC(=O)CSc2nnc(-c3ccc(NC(=O)c4cccnc4)cc3)o2)cc1` has an IC50 of 11.4 µM (NO release, inhibitor, Griess; LPS-stimulated).
`Oc1ccc(/C=C/c2cc(O)cc(O)c2)cc1` gave an IC50 of 10 µg/mL (NO release, inhibitor; LPS-stimulated).
`O=C(Nc1ccc(-c2n[nH]c(=S)n2N=Cc2c[nH]c3ccccc23)cc1)c1cccnc1` has an IC50 of 2.19 µM (NO release, inhibitor, Griess; LPS-stimulated).
`CC(C)(C)OC(=O)n1c(-c2ccccc2)cc2ccccc21` has an IC50 of 34.2 µM (NO release, inhibitor, Griess; LPS-stimulated).
The IC50 of `Oc1cccc(/C=C/c2ccccc2)c1` is reported as 11.4 µg/mL (NO release, inhibitor; LPS-stimulated).

For quick reference, copied from above:
With `c1ccc(-c2cc3ccccc3[nH]2)cc1` the IC50 was < 50 µM and 38.1 µM (NO release, inhibitor, Griess; LPS-stimulated).
The IC50 of `Cc1ccc(-c2cc(C(F)(F)F)nn2-c2ccc(S(N)(=O)=O)cc2)cc1` is reported as 16.5 µM (NO release, inhibitor, Griess; LPS-stimulated).
With `Nc1ccccc1C#Cc1cc(F)cc(F)c1` the IC50 was 4.6 µM (NO release, inhibitor, Griess; LPS-stimulated).
The IC50 of `Oc1cccc(CCc2ccccc2)c1` is reported as 19.5 µg/mL (NO release, inhibitor; LPS-stimulated).
